Measured values of several laboratories.
Lines come from different studies, so protocols differ. Values joined by “and” are separate records of one study, mostly repeats; a detail may differ. ± gives the spread as reported.

`Cc1ccc(-c2ccc(CN3CCCC3c3ccc(N(C)C)cc3)o2)c([N+](=O)[O-])c1` (stereo not drawn) — result for viability: “no effect” (HEK-Blue IL-33; MTS; up to 333 µM, 20 h).
The viability of `O=C(NC[C@H](O)CO)c1ccncc1Nc1ccc(I)cc1F` is reported as 102% (A-172; WST-8; 1 µM, 25 h).
Under viability, `COc1cc2c(NC3CCN(CCCC(=O)NCCCCCCCCCCCC(=O)N[C@H](C(=O)N4C[C@H](O)C[C@H]4C(=O)NCc4ccc(-c5scnc5C)cc4)C(C)(C)C)CC3)nc(N3CCC(F)(F)CC3)nc2cc1OCCCN1CCCC1` is recorded as “not toxic” (PNT2; CCK-8; concentration not given, 5 days).
`O=c1[nH]cc(F)c(=O)[nH]1` gave a viability of 45.6 ± 0.75% (Huh-7; CCK-8; 50 µM, 48 (unit not given); relative to: untreated control).
With `Cn1c(=O)c(F)c(Nc2ccc(I)cc2F)c2c(=O)n(C[C@@H](O)CO)cnc21` the viability was 93.2% (A-172; WST-8; 1 µM, 25 h).
`CC(C)n1ncc2c(C(=O)NCC3(C)CNC3)cc(C3CC3)nc21` has a viability of 100% (Vero C1008; neutral red uptake; DMEM with 2% FBS; 3.1 µM; relative to: positive control).
The viability of `COc1cc2c(NC3CCN(C)CC3)nc(N3CCCN(C)CC3)nc2cc1OCCOCCN(C)C` is reported as 132% (HBL-1; 0.1 µM, 120 h).
For `COc1cc2ncnc(Nc3ccc(Oc4ccccc4)c(C)c3C)c2cc1OC.Cl`, the viability was 0.95 fraction of control (NCI-H2087 (BRAF L597V); cell growth, resazurin; 3 µM, 72 h, with: 0 nM trametinib; relative to: DMSO).
`COc1ccc2c(NN=Cc3ccc(Cl)cc3)ccnc2c1` gave an IC50 of greater than 20 µM (Plasmodium yoelii; 17XL; 384-well).
Under viability, `O[C@H]1[C@H](OCc2cn(Cc3ccc(F)cc3)nn2)O[C@H]2[C@@H]1OC[C@H]2O` is recorded as “not toxic” (Huh-7; cytotoxicity, CellTiter-Glo; up to 30 µM, 72 h).
`CC(=O)Nc1cccc(-n2c(=O)n(C3CC3)c(=O)c3c(Nc4ccc(I)cc4F)n(C)c(=O)c(C)c32)c1` has a viability of 0.0958 and 0.0722 (COLO 205; resazurin; 100.00 nM, 72 h, unit not given; relative to: DMSO).
For `Cc1ccc(CNC(=O)Cn2cc(CSc3nc4ccccc4[nH]3)nn2)cc1`, the viability was 80.1% (HEK293; MTT; 3.91 ppm).
Under viability, `CN(C)c1ccc(C2CCCN2Cc2ccc(-c3ccccc3[N+](=O)[O-])o2)cc1` (stereo not drawn) is recorded as “no effect” (HEK-Blue IL-33; MTS; up to 333 µM, 20 h).
For `NC(=O)c1cccc(N)c1`, the viability was 100% (HBL-1; 1 µM, 120 h).
`O=C(C[C@@H](C(F)F)n1ccc(F)n1)N1CCC(O)(Cn2cnc3c(cnn3-c3ccc(F)cc3)c2=O)CC1` has a viability of 15.8% and 19.6% (LNCaP; CCK-8; 123.5 nM, 5 days).

A few entries again:
Under viability, `COc1cc2c(NC3CCN(CCCC(=O)NCCCCCCCCCCCC(=O)N[C@H](C(=O)N4C[C@H](O)C[C@H]4C(=O)NCc4ccc(-c5scnc5C)cc4)C(C)(C)C)CC3)nc(N3CCC(F)(F)CC3)nc2cc1OCCCN1CCCC1` is recorded as “not toxic” (PNT2; CCK-8; concentration not given, 5 days).
